Published values of several laboratories.
Every numbered part comes from another study and shows a few of its results, in no order. Substitutions count along the parent as printed.

Block 1 — method: DHFR PCA, deep sequencing; matrix: yeast; together with: (+)-ABA 58 µM; reference: wild-type fitted maximum; direction: higher = stronger binding; measurement: relative binding score
Target: ABI1, truncated, D143A, DHFR fusion (Arabidopsis thaliana)
Notes: methotrexate growth selection, single substitutions
Starting sequence: PYL1, truncated, DHFR fusion (Arabidopsis thaliana); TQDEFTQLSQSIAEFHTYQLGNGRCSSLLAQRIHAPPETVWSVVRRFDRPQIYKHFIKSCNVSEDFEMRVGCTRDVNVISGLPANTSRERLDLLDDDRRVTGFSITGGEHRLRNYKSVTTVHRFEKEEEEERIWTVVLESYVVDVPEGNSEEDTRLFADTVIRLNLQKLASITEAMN; partner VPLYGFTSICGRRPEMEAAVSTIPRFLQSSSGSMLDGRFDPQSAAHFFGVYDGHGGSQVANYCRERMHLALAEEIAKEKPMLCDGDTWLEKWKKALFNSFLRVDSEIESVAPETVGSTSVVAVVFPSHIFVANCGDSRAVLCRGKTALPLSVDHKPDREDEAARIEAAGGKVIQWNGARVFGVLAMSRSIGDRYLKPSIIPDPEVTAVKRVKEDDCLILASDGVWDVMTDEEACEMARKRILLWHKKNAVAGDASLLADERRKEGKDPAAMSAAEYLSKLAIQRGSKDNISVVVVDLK
D96N: 70.3%
E174I: 55.7%
I52S: 83.7%
S63D: 87.7%
S117E: 2.75%
W134A: 86%
R113F: 76.1%
I105T: 48.2%
E152H: 76.9%
E67S: 83%
L166R: 4.19%
L169K: -2.96%
I33A: 27.4%
S140L: 0.543%
G108A: 0.258%
T173S: 83.3%
V137Q: 12.8%
V136A: 45.3%
N85I: 86.5%
E152Y: 70.7%
D48F: 11.8%
Q51M: 54.6%
A158E: 5.21%

Block 2 — method: protein binding microarray; form: double-stranded DNA, one strand shown; matrix: in vitro; tested at: not given; reference: not given; direction: higher = stronger binding; measurement: E-score
Target: Histone acetyltransferase KAT6A, both winged helices, GST fusion (KAT6A, Homo sapiens, UniProt Q92794, residues 1-181)
Notes: 8-mer, flanks averaged, mean of 2 arrays, mostly near background
Residues (chain): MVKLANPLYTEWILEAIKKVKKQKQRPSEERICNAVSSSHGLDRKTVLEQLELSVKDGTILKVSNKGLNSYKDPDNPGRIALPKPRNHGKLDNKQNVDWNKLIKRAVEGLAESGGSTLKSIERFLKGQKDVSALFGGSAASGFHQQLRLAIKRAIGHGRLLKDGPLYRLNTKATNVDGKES
TACCTATA: -0.277
CCCCTGGA: -0.11
CGTTGTCA: -0.0285
ATGCGCGA: 0.306
GAGCTCCA: -0.123
ATCGTCAA: 0.0658
ACGGCTTG: 0.229
ACAGACCG: 0.112
CCGACTAA: 0.0926
GCCATTGA: 0.0375
CCTGTTAC: -0.103
AGGGTGTA: -0.157
ATATCCGC: 0.22
AAAACGCT: 0.101
CGCTCCAG: 0.205
TCCAAACA: -0.141
AGCAATTC: 0.02
AGGCGACG: 0.0598

Block 3 — method: RNA Bind-n-Seq; form: RNA; matrix: in vitro; tested at: 365 nM; reference: no-protein control; direction: higher = stronger binding; measurement: RBNS enrichment (R)
Target: RNA binding protein fox-1 homolog 2, RRM domain, GST-SBP tag (RBFOX2, Homo sapiens, UniProt O43251-10, residues 100-194)
Notes: natural RNA segment, single round, ends assumed
Shared flanks, not repeated: GGGAGUUCUACAGUCCGACGAUC … UGGAAUUCUCGGGUGCCAA
Residues (chain): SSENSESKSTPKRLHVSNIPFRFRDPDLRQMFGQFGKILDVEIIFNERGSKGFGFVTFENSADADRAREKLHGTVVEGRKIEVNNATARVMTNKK
GAAGUAGCAUCUCCAGGCAAGCUGCCCGAGGAAGGGAACAAGUCGCAAUGUUAGAAGAUGCCAUAAAGUCACAUGGACAACUCAUGGUACUUUUUCUGGGUUGGCAAUUU: 0.486
GACCAAUGUCAAGUUUCAGGUUUUGUGUGCUGCAUAUUUAACUUUUUCACUACCACUGUUAUGUCACUGGGUAAAAGCCUCAAACUGUUAAAUAUAUGGGAGACUGAUUA: 1.06
UCAGGUUCUAGGAGGUCCUUUAGGAAGACUCUCAAAGGCAAAUCCCUGAUCCCCCGCCCCACCCUUAGCCCUGCCCUCUCACCAGAGCAAAAUUCACUGGGGACUUUUCC: 0.512
UUCACUGCCAGAGUGGGCAUCUUGCAUAGUAAGGGAUUCCAGAUUAGAUAUGAGUUGAGCACCCUGCCUUUCUUCCUAUCACCCCGCUUCUGCUGAUAGUCCGUGCUACA: 1.35
AUAAGCUGAAAGUGCAGCUCGCUGCAGGCCCCAGAGCGAGCUUCCCCUCCUCCCUGCUCUCCCAGGCCCCUGCCACAGCCUCUUUCCGUCCCUCUCUUUCUGAUCCAGGC: 0.692
ACUGUUGGCUGCUGCCCUCCUUCCCAGUGAAAGGUACAAAGCAAUAAGCAUCAUGCAUCCUCCCCUUACCCCUCCAACACCCCUCUGCCUCUGGCUCAGGUUGCUCAAAG: 1.33
GAAGGCAAGCCAACCUUAGCUACAAUCCUACCUUUUGAUAAAAUGUUCCUUUUGACAAUAUACACGGAUUAUUAUUUGUACUUUGUUUUUCCAUGUGUUUUGCUUUUAUC: 0.916
AAAAAAAGAGUCAGCCCUUGGCUUCUGCUUCAAACCCUCAAGAGGGGAAGCAACUCCGUGUGCCUGGGGUUCCCGAGGGAGCUGCUGGCUGACCUGGGCCCACAGAGCCU: 0.298

Block 4 — method: aptamer microarray, sandwich; form: DNA with 2'F-ANA; matrix: in vitro; tested at: 200 nM; together with: Cy3 exosite-II aptamer, 400 nM; direction: higher = stronger binding; measurement: mean fluorescence intensity; strand: GGTTGGTGTGGTTGG
Target: Prothrombin, mature alpha-thrombin (F2, Homo sapiens, UniProt P00734)
Notes: whole 15-mer aptamer, many near background
2'F-ANA at 4 8 9 10 11 14: 56.1 a.u.
2'F-ANA at 1 2 5 6 7 9 11 13 14 15: 49.9 a.u.
2'F-ANA at 1 2 3 4 5 7 8 10 11 14 15: 48.9 a.u.
2'F-ANA at 1 2 3 5 6 7 8 10 13 14 15: 49.9 a.u.
2'F-ANA at 1 5 7 8 9 11 12 13 14 15: 51.1 a.u.
2'F-ANA at 2 5 6 7 9 10 13 14: 43.9 a.u.
2'F-ANA at 2 3 5 7 10 11 12 14 15: 88.8 a.u.
2'F-ANA at 2 3 6 10 12 13: 468 a.u.
2'F-ANA at 3 11 12 14: 945 a.u.
2'F-ANA at 1 4 7 9 12 13 14 15: 53.7 a.u.
2'F-ANA at 1 2 5 6 9 10 11 14: 66.9 a.u.
2'F-ANA at 2 3 5 7 9 11: 89.9 a.u.
2'F-ANA at 3 6 8 10 11 14 15: 297 a.u.
2'F-ANA at 1 4 5 7 10 11 12 14: 51.2 a.u.
2'F-ANA at 3 5 7 8 9 11 12 14 15: 64.3 a.u.
2'F-ANA at 1 3 7 8 9 10 12: 125 a.u.
2'F-ANA at 2 3 4 7 10 15: 300 a.u.
2'F-ANA at 2 4 10 14 15: 65.6 a.u.
2'F-ANA at 6 8 10: 160 a.u.
2'F-ANA at 1 3 4 5 6 9 15: 63 a.u.
2'F-ANA at 4 5 6 8 9 12 15: 139 a.u.
2'F-ANA at 1 4 5 6 9 10 15: 74.2 a.u.
2'F-ANA at 1 2 3 5 8 10 11 14: 49.3 a.u.
2'F-ANA at 2 3 4 5 8 9 10 11 13: 57.2 a.u.
2'F-ANA at 3 7 11 14 15: 648 a.u.

Repeated from above (block 4):
2'F-ANA at 2 3 6 10 12 13: 468 a.u.
2'F-ANA at 3 11 12 14: 945 a.u.
2'F-ANA at 1 4 7 9 12 13 14 15: 53.7 a.u.
2'F-ANA at 1 2 5 6 9 10 11 14: 66.9 a.u.
2'F-ANA at 2 3 5 7 9 11: 89.9 a.u.
2'F-ANA at 3 6 8 10 11 14 15: 297 a.u.
2'F-ANA at 1 4 5 7 10 11 12 14: 51.2 a.u.
